# Experimental data of several laboratories.
# Numbered parts are unrelated; each lists some results of a single study.
# Chain of UniProt P42336 (whole entry, unmodified, looked up): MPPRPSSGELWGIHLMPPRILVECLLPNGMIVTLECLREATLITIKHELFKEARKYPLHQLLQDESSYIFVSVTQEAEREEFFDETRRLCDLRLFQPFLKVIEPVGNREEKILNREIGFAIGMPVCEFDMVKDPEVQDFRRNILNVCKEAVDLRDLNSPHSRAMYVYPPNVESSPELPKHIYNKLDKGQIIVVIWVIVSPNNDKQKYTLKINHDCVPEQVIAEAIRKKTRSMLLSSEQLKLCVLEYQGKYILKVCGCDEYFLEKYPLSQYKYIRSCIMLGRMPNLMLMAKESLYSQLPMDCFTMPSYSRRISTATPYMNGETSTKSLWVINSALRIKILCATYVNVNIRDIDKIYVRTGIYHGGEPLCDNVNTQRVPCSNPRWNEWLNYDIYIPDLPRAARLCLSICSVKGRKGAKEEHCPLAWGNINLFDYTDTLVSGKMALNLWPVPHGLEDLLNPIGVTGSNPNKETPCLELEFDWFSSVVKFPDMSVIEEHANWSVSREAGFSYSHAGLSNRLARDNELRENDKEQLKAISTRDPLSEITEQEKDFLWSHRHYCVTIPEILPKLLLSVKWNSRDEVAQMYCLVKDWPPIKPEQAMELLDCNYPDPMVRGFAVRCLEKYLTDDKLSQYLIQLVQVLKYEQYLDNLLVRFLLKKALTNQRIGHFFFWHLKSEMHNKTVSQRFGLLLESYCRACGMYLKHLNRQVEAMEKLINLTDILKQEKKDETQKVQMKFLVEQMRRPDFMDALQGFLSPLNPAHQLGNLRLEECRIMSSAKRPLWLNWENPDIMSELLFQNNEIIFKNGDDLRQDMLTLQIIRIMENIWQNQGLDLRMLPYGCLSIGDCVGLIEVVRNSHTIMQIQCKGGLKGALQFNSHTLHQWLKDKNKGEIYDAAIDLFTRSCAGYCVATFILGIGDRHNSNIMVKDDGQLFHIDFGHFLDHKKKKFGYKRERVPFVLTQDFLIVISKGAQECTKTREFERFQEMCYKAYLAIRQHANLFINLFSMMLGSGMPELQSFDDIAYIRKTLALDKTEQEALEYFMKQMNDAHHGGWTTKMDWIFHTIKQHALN
# Chain of UniProt P27361 (whole entry, looked up): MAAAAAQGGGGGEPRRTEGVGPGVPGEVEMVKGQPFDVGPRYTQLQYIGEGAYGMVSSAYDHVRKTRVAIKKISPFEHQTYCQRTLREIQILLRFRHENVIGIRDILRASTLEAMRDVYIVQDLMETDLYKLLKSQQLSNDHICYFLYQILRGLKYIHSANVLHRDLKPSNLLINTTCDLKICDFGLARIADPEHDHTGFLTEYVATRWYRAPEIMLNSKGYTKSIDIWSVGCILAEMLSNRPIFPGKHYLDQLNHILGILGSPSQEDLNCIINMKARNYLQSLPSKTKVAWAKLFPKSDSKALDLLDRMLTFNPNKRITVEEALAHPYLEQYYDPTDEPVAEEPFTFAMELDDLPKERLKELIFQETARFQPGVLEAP
# Chain of UniProt P00519 (whole entry, unmodified, looked up): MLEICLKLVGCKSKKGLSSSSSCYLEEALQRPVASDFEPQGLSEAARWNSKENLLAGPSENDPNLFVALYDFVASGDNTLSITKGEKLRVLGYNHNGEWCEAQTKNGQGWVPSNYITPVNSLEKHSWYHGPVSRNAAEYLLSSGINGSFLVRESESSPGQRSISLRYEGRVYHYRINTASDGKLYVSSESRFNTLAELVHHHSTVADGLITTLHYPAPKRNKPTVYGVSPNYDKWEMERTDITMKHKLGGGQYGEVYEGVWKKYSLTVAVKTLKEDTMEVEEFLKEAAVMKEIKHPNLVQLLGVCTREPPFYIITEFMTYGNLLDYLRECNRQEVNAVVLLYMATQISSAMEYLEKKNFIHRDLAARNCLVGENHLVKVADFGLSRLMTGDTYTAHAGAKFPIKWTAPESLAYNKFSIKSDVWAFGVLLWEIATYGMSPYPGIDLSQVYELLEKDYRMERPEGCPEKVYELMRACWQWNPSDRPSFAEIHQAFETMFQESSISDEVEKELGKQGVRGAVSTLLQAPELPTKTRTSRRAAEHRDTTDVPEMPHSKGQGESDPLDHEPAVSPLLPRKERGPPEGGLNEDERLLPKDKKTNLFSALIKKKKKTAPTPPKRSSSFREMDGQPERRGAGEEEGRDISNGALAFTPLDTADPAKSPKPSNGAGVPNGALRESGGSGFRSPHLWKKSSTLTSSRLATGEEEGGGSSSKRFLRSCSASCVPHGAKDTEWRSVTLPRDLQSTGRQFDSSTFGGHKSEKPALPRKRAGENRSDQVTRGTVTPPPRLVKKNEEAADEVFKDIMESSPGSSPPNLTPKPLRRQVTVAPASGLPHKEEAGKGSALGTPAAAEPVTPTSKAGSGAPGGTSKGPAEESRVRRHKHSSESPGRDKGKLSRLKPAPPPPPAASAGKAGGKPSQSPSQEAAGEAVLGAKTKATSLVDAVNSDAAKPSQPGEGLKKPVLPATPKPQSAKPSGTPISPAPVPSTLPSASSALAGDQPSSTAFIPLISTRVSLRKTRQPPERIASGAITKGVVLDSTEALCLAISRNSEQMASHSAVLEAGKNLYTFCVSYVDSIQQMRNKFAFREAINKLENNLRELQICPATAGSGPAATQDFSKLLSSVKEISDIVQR

# Block 1
# Target: Ephrin type-A receptor 1 (EPHA1, Homo sapiens, UniProt P21709)
# Chain of UniProt P21709 (whole entry, looked up): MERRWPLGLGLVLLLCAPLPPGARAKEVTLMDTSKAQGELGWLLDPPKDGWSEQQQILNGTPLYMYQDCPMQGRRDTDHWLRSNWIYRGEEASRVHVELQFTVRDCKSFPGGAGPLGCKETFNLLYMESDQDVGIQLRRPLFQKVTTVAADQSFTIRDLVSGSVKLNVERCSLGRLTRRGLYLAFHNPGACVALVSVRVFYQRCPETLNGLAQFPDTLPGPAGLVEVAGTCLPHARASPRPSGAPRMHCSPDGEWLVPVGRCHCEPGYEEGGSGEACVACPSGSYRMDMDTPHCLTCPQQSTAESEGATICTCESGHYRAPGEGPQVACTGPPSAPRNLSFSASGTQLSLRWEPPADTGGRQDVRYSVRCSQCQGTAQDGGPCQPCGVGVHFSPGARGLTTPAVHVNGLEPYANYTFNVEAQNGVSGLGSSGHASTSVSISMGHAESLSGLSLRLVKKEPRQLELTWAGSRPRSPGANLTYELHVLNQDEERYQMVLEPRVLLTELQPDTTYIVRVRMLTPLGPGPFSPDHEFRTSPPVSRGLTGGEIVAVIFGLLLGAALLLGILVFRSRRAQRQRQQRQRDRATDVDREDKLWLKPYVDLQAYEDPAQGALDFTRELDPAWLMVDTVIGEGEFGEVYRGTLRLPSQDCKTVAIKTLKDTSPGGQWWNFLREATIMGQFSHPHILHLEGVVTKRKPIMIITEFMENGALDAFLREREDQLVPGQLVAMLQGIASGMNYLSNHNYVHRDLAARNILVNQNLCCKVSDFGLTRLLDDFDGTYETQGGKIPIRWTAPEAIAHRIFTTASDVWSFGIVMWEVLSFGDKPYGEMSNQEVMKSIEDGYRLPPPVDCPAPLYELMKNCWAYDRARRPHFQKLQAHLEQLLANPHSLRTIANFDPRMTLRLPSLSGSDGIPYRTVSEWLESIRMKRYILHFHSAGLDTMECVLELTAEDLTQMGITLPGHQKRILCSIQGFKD
# Read-out: enzyme activity
# Mode: inhibitor
# Tested at: 0.5 µM
# Relative to: control
Compound,remaining activity
COc1ccc(S(=O)(=O)N(CCO)c2ccccc2CN(C)CC=Cc2ccc(Cl)cc2)cc1,101%
Oc1ccc(Nc2nc(-c3ccc(Cl)cc3)cs2)cc1,92.6%
CC#CC(=O)Nc1cc2c(Nc3ccc(F)c(Cl)c3)ncnc2cn1,88.3%
Nc1nccc(-c2c(-c3ccc(F)cc3)ncn2C2CCNCC2)n1,98.2%
Nc1nc(Nc2ccc(S(N)(=O)=O)cc2)nn1C(=O)c1c(F)cccc1F,73.7%
CSc1nc(-c2ccnc(N[C@@H](C)c3ccccc3)c2)c(-c2ccc(F)cc2)[nH]1 (racemic),89.8%
Fc1ccc(-c2nc3n(c2-c2ccncc2)CCS3)cc1,98.2%
O=C1Cc2c([nH]c3ccc([N+](=O)[O-])cc23)-c2ccccc2N1,94.8%
Cc1ccc(NC2=CC(=O)c3sc(C)nc3C2=O)cc1,86.1%
NC(=O)c1ccc(N(C(N)=O)c2c(F)cccc2F)nc1-c1ccc(F)cc1F,99.1%
O=S(=O)(NCCNC/C=C/c1ccc(Br)cc1)c1cccc2cnccc12,83.7%
CC(=O)c1ccc(N2CCOCC2)cc1O,94%
O=C1NC(=O)C(c2c[nH]c3ccccc23)=C1c1c[nH]c2ccccc12,92.1%
Nc1ncnc2c1cnn2-c1ccccc1,92.4%
N#CC(=C(N)Sc1ccc(N)cc1)c1ccccc1C(F)(F)F,100%
CCCC(=O)Oc1ccc2[nH]c(C(=O)c3cc4ccccc4[nH]3)cc2c1,88.8%
CC[n+]1c(/C=C/N(C)c2ccccc2)n(-c2ccccc2)c2ccc(-c3nc4ccccc4s3)cc21,77.1%
Cc1cc(Nc2nc(-c3ccccc3)nc3ccccc23)n[nH]1,69.9%
CCc1[nH]c(-c2ccc(OC)cc2)nc1-c1ccncc1,116%
Cc1cncc2cccc(S(=O)(=O)N3CCCN(C(=O)CN)C[C@@H]3C)c12,89.2%
CC(C)(C)n1nc(Cc2cccc3ccccc23)c2c(N)ncnc21,29.8%

# Block 2
# Structure (SMILES): C=CCc1ccc(O)c(-c2ccc(O)c(CC=C)c2)c1
# ANO1 del476-501/F628A: Anoctamin-1 (ANO1, Homo sapiens, UniProt Q5XXA6, del476-501/F628A)
# Chain of UniProt Q5XXA6 (whole entry, unmodified, looked up): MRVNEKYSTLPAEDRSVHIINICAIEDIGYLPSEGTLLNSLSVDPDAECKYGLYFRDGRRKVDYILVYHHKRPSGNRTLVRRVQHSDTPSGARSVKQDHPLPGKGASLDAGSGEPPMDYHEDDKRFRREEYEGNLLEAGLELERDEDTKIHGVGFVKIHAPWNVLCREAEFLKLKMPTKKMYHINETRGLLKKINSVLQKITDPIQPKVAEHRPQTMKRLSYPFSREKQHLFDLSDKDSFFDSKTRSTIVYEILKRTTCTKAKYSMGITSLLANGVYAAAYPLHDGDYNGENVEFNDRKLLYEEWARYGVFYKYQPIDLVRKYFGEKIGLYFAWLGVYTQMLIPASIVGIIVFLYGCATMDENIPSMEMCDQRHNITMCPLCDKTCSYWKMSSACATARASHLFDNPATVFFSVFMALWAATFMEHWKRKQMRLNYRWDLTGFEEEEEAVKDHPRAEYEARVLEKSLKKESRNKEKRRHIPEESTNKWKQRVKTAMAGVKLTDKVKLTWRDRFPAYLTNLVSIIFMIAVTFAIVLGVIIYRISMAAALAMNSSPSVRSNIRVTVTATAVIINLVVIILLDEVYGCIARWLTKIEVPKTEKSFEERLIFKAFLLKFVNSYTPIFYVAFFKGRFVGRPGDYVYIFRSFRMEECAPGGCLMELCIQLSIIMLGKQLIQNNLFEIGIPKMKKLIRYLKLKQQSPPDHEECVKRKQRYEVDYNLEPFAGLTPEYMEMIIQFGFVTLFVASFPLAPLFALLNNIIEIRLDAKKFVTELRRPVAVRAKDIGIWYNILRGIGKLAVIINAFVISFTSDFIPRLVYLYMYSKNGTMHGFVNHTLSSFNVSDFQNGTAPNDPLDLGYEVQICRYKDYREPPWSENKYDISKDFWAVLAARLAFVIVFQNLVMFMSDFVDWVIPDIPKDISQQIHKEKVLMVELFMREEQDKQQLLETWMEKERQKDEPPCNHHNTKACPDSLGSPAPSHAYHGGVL
# ANO1 del476-501/E649A/R541A: Anoctamin-1 (ANO1, Homo sapiens, UniProt Q5XXA6, del476-501/E649A/R541A)
# ANO1 del476-501: Anoctamin-1 (ANO1, Homo sapiens, UniProt Q5XXA6, del476-501)
target,test,conditions,normalized current
ANO1 del476-501/F628A,"chloride current, whole-cell voltage clamp","100 µM, I-V at 40 mV, added: 4 µM Ca2+",0.0963
ANO1 del476-501/F628A,"chloride current, whole-cell voltage clamp","100 µM, I-V at 20 mV, added: 4 µM Ca2+",0.0447
ANO1 del476-501/F628A,"chloride current, whole-cell voltage clamp","10 µM, concentration-response at -100 mV, added: 4 µM Ca2+",-0.643
ANO1 del476-501/E649A/R541A,"chloride current, inside-out patch clamp","10 µM, membrane voltage 80 mV",0.525
"Anoctamin-1 (ANO1, Homo sapiens, UniProt Q5XXA6, del476-501/E659A)","chloride current, inside-out patch clamp","10 µM, membrane voltage 40 mV",0.341
ANO1 del476-501/F628A,"chloride current, whole-cell voltage clamp","3 µM, I-V at -20 mV, added: 4 µM Ca2+",-0.143
ANO1 del476-501,"chloride current, whole-cell voltage clamp","3 µM, wild type, I-V at -60 mV, added: 4 µM Ca2+",-0.457
ANO1 del476-501/E649A/R541A,"chloride current, inside-out patch clamp","10 µM, membrane voltage -20 mV",-0.0917
"Anoctamin-1 (ANO1, Homo sapiens, UniProt Q5XXA6, del476-501/E649A)","ion current, inside-out patch clamp","10 µM, E623A mutant at 0 mV",-0.00022
ANO1 del476-501/F628A,"chloride current, whole-cell voltage clamp","10 µM, I-V at -20 mV, added: 4 µM Ca2+",-0.111
ANO1 del476-501/F628A,"chloride current, whole-cell voltage clamp","1 µM, I-V at -100 mV, added: 4 µM Ca2+",-0.815
"Anoctamin-1 (ANO1, Homo sapiens, UniProt Q5XXA6, del476-501/K629A)","chloride current, inside-out patch clamp","10 µM, membrane voltage 80 mV",0.553
ANO1 del476-501,"chloride current, whole-cell voltage clamp","10 µM, wild type, concentration-response at -60 mV, added: 4 µM Ca2+",-0.166
ANO1 del476-501,"chloride current, whole-cell voltage clamp","30 µM, wild type, concentration-response at -80 mV, added: 4 µM Ca2+",-0.0502
"Anoctamin-1 (ANO1, Homo sapiens, UniProt Q5XXA6, del476-501/R631A)","chloride current, inhibitor, whole-cell voltage clamp","30 µM, R605A mutant",0.126
TMEM16A (human) K603A/E623A,"chloride current, inside-out patch clamp","10 µM, membrane voltage -20 mV",-0.0865
ANO1 del476-501,"chloride current, whole-cell voltage clamp","1 µM, wild type, I-V at -20 mV, added: 4 µM Ca2+",-0.183
ANO1 del476-501/F628A,"chloride current, whole-cell voltage clamp","10 µM, concentration-response at -60 mV, added: 4 µM Ca2+",-0.439

# Block 3
# Target: Calcium/calmodulin-dependent protein kinase type II subunit alpha (CAMK2A, Homo sapiens, UniProt Q9UQM7)
# Chain of UniProt Q9UQM7 (whole entry, looked up): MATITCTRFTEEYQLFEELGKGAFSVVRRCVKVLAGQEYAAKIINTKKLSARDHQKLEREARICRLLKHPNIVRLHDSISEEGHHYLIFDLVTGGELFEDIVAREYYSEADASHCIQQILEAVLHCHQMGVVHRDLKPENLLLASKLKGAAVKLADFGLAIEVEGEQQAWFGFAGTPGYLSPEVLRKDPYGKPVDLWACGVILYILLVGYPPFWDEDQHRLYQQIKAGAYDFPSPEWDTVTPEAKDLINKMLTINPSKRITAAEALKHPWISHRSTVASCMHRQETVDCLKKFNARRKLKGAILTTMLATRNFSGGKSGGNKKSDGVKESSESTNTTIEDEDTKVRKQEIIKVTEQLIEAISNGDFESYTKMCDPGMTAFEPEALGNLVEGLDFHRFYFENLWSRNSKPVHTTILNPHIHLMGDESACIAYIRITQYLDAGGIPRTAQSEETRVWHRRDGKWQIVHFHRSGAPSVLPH
# Read-out: enzyme activity
# Mode: inhibitor
# Tested at: 10 µM
Compound,inhibition
CC(OC(=O)NCC1(CC(=O)O)CCCCC1)OC(=O)C(C)C (stereo not shown),7%
OC1(c2ccc(Cl)c(C(F)(F)F)c2)CCN(CCCC(c2ccc(F)cc2)c2ccc(F)cc2)CC1,1%
C=C1C[C@@]23CC[C@H]4[C@@](C)(CCC[C@@]4(C)C(=O)O[C@@H]4O[C@H](CO)[C@@H](O)[C@H](O)[C@H]4O[C@@H]4O[C@H](CO)[C@@H](O)[C@H](O)[C@H]4O)[C@@H]2CC[C@]1(O[C@@H]1O[C@H](CO)[C@@H](O)[C@H](O[C@@H]2O[C@H](CO)[C@@H](O)[C@H](O)[C@H]2O)[C@H]1O[C@@H]1O[C@H](CO)[C@@H](O)[C@H](O)[C@H]1O)C3,-8%
O=C(O)CCCC(=O)O,9%
Cc1cc(C(=O)NNCc2ccccc2)no1,9%
Cc1ncc([N+](=O)[O-])n1C[C@@H](CN1CCOCC1)OP(=O)(O)O,-6%
COc1ccc(CCNCC(O)COc2cccc(C)c2)cc1OC (stereo not shown),-3%
CC(C)CCC[C@@H](C)[C@H]1CC[C@H]2C3=CC=C4C[C@@H](O)CC[C@]4(C)[C@H]3CC[C@]12C,30%
CC/C=C\C/C=C\C/C=C\CCCCCCCC(=O)NCc1ccccc1,20%
COc1ccc(-c2oc3c(CC=C(C)C)c(O)cc(O)c3c(=O)c2O[C@@H]2O[C@@H](C)[C@H](O)[C@@H](O)[C@H]2O[C@@H]2O[C@H](CO)[C@@H](O)[C@H](O)[C@H]2O)cc1,-19%
CC(=O)O[C@H]([C@@H](O)C[C@@H](C)C1=C2C[C@H](O)[C@H]3[C@@]4(C)CCC(=O)C(C)(C)[C@@H]4CC[C@]3(C)[C@@]2(C)CC1)C(C)(C)O,11%
CC[C@@H](CO)NCCN[C@@H](CC)CO,4%
CC(C)C[C@@H](N)C(=O)N[C@H]1C(=O)N[C@@H](CC(N)=O)C(=O)N[C@H]2C(=O)N[C@H]3C(=O)N[C@H](C(=O)N[C@H](C(=O)O)c4cc(O)cc(O)c4-c4cc3ccc4O)[C@H](O)c3ccc(c(Cl)c3)Oc3cc2cc(c3O[C@@H]2O[C@H](CO)[C@@H](O)[C@H](O)[C@H]2O[C@H]2C[C@](C)(N)[C@H](O)[C@H](C)O2)Oc2ccc(cc2Cl)[C@H]1O,2%
CCCc1cc(=O)[nH]c(=S)[nH]1,3%
O=C(O)C1CSSC1,35%

# Block 4
# Compound: Cc1nccc(COC(=O)N2C[C@@H]3[C@@H](CNC(=O)c4ccc5[nH]nnc5c4)[C@@H]3C2)n1
# Tested at: 1 µM
target,read-out,method,remaining binding [%]
"STK17B (Homo sapiens, UniProt O94768)",cell-free assay,competition with immobilised ligand,85
"PIP5K1A (Homo sapiens, UniProt Q99755)",cell-free assay,competition with immobilised ligand,100
"SYK (Homo sapiens, UniProt P43405)",cell-free assay,competition with immobilised ligand,100
"PTK2B (Homo sapiens, UniProt Q14289)",cell-free assay,competition with immobilised ligand,100
"MAP3K5 (Homo sapiens, UniProt Q99683)",cell-free assay,competition with immobilised ligand,95
"PIM1 (Homo sapiens, UniProt P11309)",cell-free assay,competition with immobilised ligand,96
"MAPK3 (Homo sapiens, UniProt P27361)",cell-free assay,competition with immobilised ligand,92
"Tyrosine-protein kinase ABL1, phosphorylated (ABL1, Homo sapiens, UniProt P00519, F317I)",binding,,81
"TYRO3 (Homo sapiens, UniProt Q06418)",cell-free assay,competition with immobilised ligand,100
"EPHB6 (Homo sapiens, UniProt O15197)",cell-free assay,competition with immobilised ligand,99
"PIK3CA (Homo sapiens, UniProt P42336, E545A)",cell-free assay,competition with immobilised ligand,87
"DAPK1 (Homo sapiens, UniProt P53355)",cell-free assay,competition with immobilised ligand,95
"Tyrosine-protein kinase JAK1, JH2 (JAK1, Homo sapiens, UniProt P23458)",cell-free assay,competition with immobilised ligand,85
"CDK11B (Homo sapiens, UniProt P21127)",cell-free assay,competition with immobilised ligand,100
"LATS1 (Homo sapiens, UniProt O95835)",cell-free assay,competition with immobilised ligand,89
"CDK7 (Homo sapiens, UniProt P50613)",cell-free assay,competition with immobilised ligand,78
"PRKACA (Homo sapiens, UniProt P17612)",cell-free assay,competition with immobilised ligand,88
"PTK6 (Homo sapiens, UniProt Q13882)",cell-free assay,competition with immobilised ligand,100
"PI4KB (Homo sapiens, UniProt Q9UBF8)",cell-free assay,competition with immobilised ligand,97
"CSF1R (Homo sapiens, UniProt P07333)",cell-free assay,competition with immobilised ligand,88
"EPHB3 (Homo sapiens, UniProt P54753)",cell-free assay,competition with immobilised ligand,100
"ACVR2B (Homo sapiens, UniProt Q13705)",cell-free assay,competition with immobilised ligand,91
"ALK (Homo sapiens, UniProt Q9UM73)",cell-free assay,competition with immobilised ligand,87
"BUB1 (Homo sapiens, UniProt O43683)",cell-free assay,competition with immobilised ligand,90
"PIK3CA (Homo sapiens, UniProt P42336, E545K)",cell-free assay,competition with immobilised ligand,86

# Excerpt of the above (block 4):
target,read-out,method,remaining binding [%]
"MAPK3 (Homo sapiens, UniProt P27361)",cell-free assay,competition with immobilised ligand,92
"ACVR2B (Homo sapiens, UniProt Q13705)",cell-free assay,competition with immobilised ligand,91
"CDK7 (Homo sapiens, UniProt P50613)",cell-free assay,competition with immobilised ligand,78
"PIK3CA (Homo sapiens, UniProt P42336, E545A)",cell-free assay,competition with immobilised ligand,87
"PRKACA (Homo sapiens, UniProt P17612)",cell-free assay,competition with immobilised ligand,88
"PTK2B (Homo sapiens, UniProt Q14289)",cell-free assay,competition with immobilised ligand,100
"ALK (Homo sapiens, UniProt Q9UM73)",cell-free assay,competition with immobilised ligand,87
"PIM1 (Homo sapiens, UniProt P11309)",cell-free assay,competition with immobilised ligand,96
"EPHB3 (Homo sapiens, UniProt P54753)",cell-free assay,competition with immobilised ligand,100
"LATS1 (Homo sapiens, UniProt O95835)",cell-free assay,competition with immobilised ligand,89
"TYRO3 (Homo sapiens, UniProt Q06418)",cell-free assay,competition with immobilised ligand,100
